Measured values of several laboratories.
± gives the spread as reported.

The Cmax of CNC(=O)c1ccc(-c2cnn3ccc(C(=O)N(C)c4ccc(Cl)c(C(=O)OC)c4)cc23)cc1 is reported as 59 nM (neonatal calf, uninfected healthy, plasma; oral, 10 mg/kg).
CCCCCOc1ccc(-c2cc(-c3ccc(C(=O)N[C@H]4C[C@@H](O)[C@@H](O)NC(=O)[C@@H]5[C@@H](O)[C@@H](C)CN5C(=O)[C@H]([C@H](O)CC(N)=O)NC(=O)[C@H]([C@H](O)[C@@H](O)c5ccc(O)c(OS(=O)(=O)O)c5)NC(=O)[C@@H]5C[C@@H](O)CN5C(=O)[C@H]([C@@H](C)O)NC4=O)cc3)no2)cc1 gave a Cmax of 26600 ng/mL (young infants at least 1000 g, plasma; intravenous infusion, 7 mg/kg/day, day 4, mean, 1 h infusion, repeat dosing).
With CC[C@H](C)CCCCC(=O)N[C@@H](CCN)C(=O)N[C@H](C(=O)N[C@@H](CCN)C(=O)N[C@H]1CCNC(=O)[C@H]([C@@H](C)O)NC(=O)[C@H](CCN)NC(=O)[C@H](CCN)NC(=O)[C@H](CC(C)C)NC(=O)[C@@H](Cc2ccccc2)NC(=O)[C@H](CCN)NC1=O)[C@@H](C)O the Cmax was 4040 ± 1590 ng/mL (HPLC-MS/MS; patients with acute kidney injury (RIFLE Injury), plasma; intravenous, dose not given, total concentration).
CC[C@H](C)C(=O)O[C@H]1C[C@H](O)C=C2C=C[C@H](C)[C@H](CC[C@@H](O)C[C@@H](O)CC(=O)O)[C@H]21 has a Cmax of 26.3 ng/mL (healthy volunteers, plasma; oral, dose not given, added: 2D regimen).
With Cc1ncc2n1-c1ccc(Cl)cc1C(c1ccccc1F)=NC2 the Cmax was 50 ng/mL (healthy volunteers, plasma; oral, 8 mg, CYP3A probe, before Echinacea, geometric mean).
C[C@H]1O[C@@H](O[C@H]2[C@@H](O)C[C@H](O[C@H]3[C@@H](O)C[C@H](O[C@H]4CC[C@@]5(C)[C@H](CC[C@@H]6[C@@H]5C[C@@H](O)[C@]5(C)[C@@H](C7=CC(=O)OC7)CC[C@]65O)C4)O[C@@H]3C)O[C@@H]2C)C[C@H](O)[C@@H]1O has a Cmax of 1.34 ng/mL (healthy volunteers, plasma; oral, dose not given, given alone).
Cc1ncc2n1-c1ccc(Cl)cc1C(c1ccccc1F)=NC2 gave a Cmax of 39.5 ng/mL (healthy men, plasma; oral, 7.5 mg, day 26, arithmetic mean, added: 14 days post amenamevir).
With CC[C@H](C)[C@H](NC(=O)[C@@H](N)CCCNC(=N)N)C(=O)N[C@H](C(=O)N1CCC[C@H]1C(=O)N[C@@H](C)C(N)=O)C(C)C the Cmax was 5540 ± 3720 ng/mL (healthy volunteers, both sexes, plasma; intravenous infusion, 1.5 mg/kg daily, day 7, multiple ascending dose).
CN(C)CCC[C@@]1(c2ccc(F)cc2)OCc2cc(C#N)ccc21 gave a Cmax of 8.86 ng/mL (healthy volunteers, plasma; oral, dose not given, added: 2D regimen).
O=C1c2c(c3c4ccc(O)cc4n([C@@H]4O[C@H](CO)[C@@H](O)[C@H](O)[C@H]4O)c3c3[nH]c4cc(O)ccc4c23)C(=O)N1NC(CO)CO gave a Cmax of 59.2 ± 27.3 ng/mL (cancer patients, plasma; intravenous infusion, 6 mg/m2, 1 h infusion, cycle 2, added: 5-FU/leucovorin).
The Cmax of CC(C)c1nc(N(C)S(C)(=O)=O)nc(-c2ccc(F)cc2)c1/C=C/[C@@H](O)C[C@@H](O)CC(=O)O is reported as 6.09 ng/mL (healthy volunteers, plasma; oral, dose not given, added: 2D regimen).
Cc1cc(C(C#N)c2ccc(Cl)cc2)c(Cl)cc1NC(=O)c1cc(I)cc(I)c1O (stereo not drawn) has a Cmax of 114000 ± 22100 ng/mL (parasitized Corriedale lambs, plasma; subcutaneous, 5 mg/kg, added: moxidectin 0.2 mg/kg subcutaneous).
The Cmax of CCCCCOc1ccc(-c2cc(-c3ccc(C(=O)N[C@H]4C[C@@H](O)[C@@H](O)NC(=O)[C@@H]5[C@@H](O)[C@@H](C)CN5C(=O)[C@H]([C@H](O)CC(N)=O)NC(=O)[C@H]([C@H](O)[C@@H](O)c5ccc(O)c(OS(=O)(=O)O)c5)NC(=O)[C@@H]5C[C@@H](O)CN5C(=O)[C@H]([C@@H](C)O)NC4=O)cc3)no2)cc1 is reported as 38200 ng/mL (preterm neonates ≥1000 g, plasma; intravenous, 15 mg/kg/day, repeated dosing, mean).
C[C@@H](Oc1cc(-c2cnn(C3CCNCC3)c2)cnc1N)c1c(Cl)ccc(F)c1Cl gave a Cmax of 279 ng/mL (patients; 215 mg/m^2, day 1, with dasatinib, median).
Cc1ncc2n1-c1ccc(Cl)cc1C(c1ccccc1F)=NC2 gave a Cmax of 39.5 ng/mL (healthy volunteers, plasma; oral, 7.5 mg single dose, day 1, arithmetic mean, alone).
With Cc1cc(=O)[nH]c2c1NC(=O)c1cccnc1N2C1CC1 the Cmax was 2.82 ± 1.03 ng/mL (olive baboon (Papio anubis), non-pregnant, serum; oral, 10 mg/kg of nevirapine, solution, single dose).
With C=CCNC1=C2C[C@@H](C)C[C@H](OC)[C@H](O)[C@@H](C)/C=C(\C)[C@H](OC(N)=O)[C@@H](OC)/C=C\C=C(/C)C(=O)NC(=CC1=O)C2=O the Cmax was 2780 ± 656 ng/mL (patients, plasma; intravenous, 200 mg/m2, cycle 1 day 4, added: bortezomib 0.7 mg/m2).
O=c1[nH]c(Cc2ccccn2)nc2c1cnn2C1CCOCC1 has a Cmax of 55.9 nM (healthy men, extensive metabolizers, plasma; oral, 5 mg single dose, tablet, geometric mean).
